Measured values pooled from the literature.
Numbered parts are unrelated; each lists some results of a single study. Several values in a cell are separate wells, animals, samples, runs or records. Positions count from the first letter of the parent shown.

Block 1
Target: CCNB2, cyclin fold, Cln2 fusion (human)
Technique: yeast growth competition, sequencing
Medium: yeast
Notes: weak parent motif
Reference: not given
Direction: higher = stronger binding
Starting sequence: RBL2 docking peptide (human); STTRRRLFVENDS
Variant	normalised enrichment score
SSTRRRLFVENDS [T2S]	0.143
STTRRRCFVENDS [L7C]	0.28
SHTRRRLFVENDS [T2H]	0.496
STTSRRLFVENDS [R4S]	-0.393
STTRRHLFVENDS [R6H]	0.152

Block 2
Target: Ras GTPase-activating protein-binding protein 1, RRM domain (G3BP1, Homo sapiens, UniProt Q13283)
UniProt Q13283, sequence (whole entry, looked up): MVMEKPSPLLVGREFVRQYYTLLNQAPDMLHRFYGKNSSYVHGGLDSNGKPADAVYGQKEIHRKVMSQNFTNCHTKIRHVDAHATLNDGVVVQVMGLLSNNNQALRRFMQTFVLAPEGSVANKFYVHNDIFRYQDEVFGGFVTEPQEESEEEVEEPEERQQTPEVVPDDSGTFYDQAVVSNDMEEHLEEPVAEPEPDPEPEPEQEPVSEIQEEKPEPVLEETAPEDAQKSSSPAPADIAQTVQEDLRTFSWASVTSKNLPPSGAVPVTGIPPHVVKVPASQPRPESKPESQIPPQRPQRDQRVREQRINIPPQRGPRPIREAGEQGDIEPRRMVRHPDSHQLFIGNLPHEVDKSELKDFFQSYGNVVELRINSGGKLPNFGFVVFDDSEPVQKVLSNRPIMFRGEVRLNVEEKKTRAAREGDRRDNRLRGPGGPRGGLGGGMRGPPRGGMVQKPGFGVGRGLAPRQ
Technique: RNA Bind-n-Seq
Form: RNA
Medium: in vitro
Concentration: 1 µM
Notes: whole 134-nt RNA, ends assumed
Together with: 150 mM KCl
Reference: input library
Direction: higher = stronger binding
Sequence	log2 enrichment
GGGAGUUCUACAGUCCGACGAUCUGGGAGCUGGAUUUUGUUUAUUUUUUUAGCUCAUUUCCAGGGGUGGGAAUUUUUUUUUAAUAUGUGUCAUGAAUAAAGUUGUUUUUGAAAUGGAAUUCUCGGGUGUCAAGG	1.69
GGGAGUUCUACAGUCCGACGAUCGUCCUGUGCUACACAUCGUAUGUACCGAAUCGGGGAAAAAGGGGUUUGGGGUUUGGGGAAAGUAUUAUGUUACGCCGUUCGGAUCUGCACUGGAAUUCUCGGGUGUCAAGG	1.68
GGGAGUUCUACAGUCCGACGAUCUUCUGGUCUGCUCACCAGAGGUUCUUCAAAUACUUAUGCAUAGCAUCCAAAGUUAAAAGGGUUGUGCAACUAGCUCGAGAGGAAAUCAAGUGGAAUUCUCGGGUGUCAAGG	-0.287
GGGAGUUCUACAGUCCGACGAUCCUCAAGUCCUGUGCUACACAUCGUAUGUACCGAAUCGGAAGGGGAAGGGGAAGGAAAGUAUUAUGUUACGCCGUUCGGAUCUGCACUUCCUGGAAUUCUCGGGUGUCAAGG	-0.34
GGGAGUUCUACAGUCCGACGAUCUGGGAGGUGGAUUUUGUUUAUUUUUUUAGCUCAUUUCCAGGGGUGGGAAUUUUUUCUUAAUAUGUGUCAUGAAUAAAGUUGUUUUUGAAAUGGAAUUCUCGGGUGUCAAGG	2.07
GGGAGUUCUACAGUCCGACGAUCCACAGACAACACGCACCCACACAGACACAGAGGGAAGGGGUUGGGAUGGGGACAGGGUGCACAGCGGGGCGGGGUAGGACCCCAGCCCCUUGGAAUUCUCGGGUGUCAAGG	0.048
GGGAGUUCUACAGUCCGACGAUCCCUCAAGUCCUGUGCUACACAUCGUAUGUACCGAAUCGGAAGGGGAAGGAAGGAAAGUAUUAUGUUACGCCGUUCGGAUCUGCACUUCCAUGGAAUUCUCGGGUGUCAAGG	-0.324
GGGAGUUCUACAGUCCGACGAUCUGCUGGAGUGGCAGAAGACUUUUGAGGAGAAGCUCACGCCGUUGCUGAGUGUGCGGGAGUCACUCUCAGAGGAAGAGGCCCAGAAGAUGGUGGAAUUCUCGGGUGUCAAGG	-0.43
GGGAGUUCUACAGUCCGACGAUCCAAGUCCUGUGCUACACAUCGUAUGUACCGAAUCGGGAAAGGGGAAAGGGAAAGGGAAAGUAUUAUGUUACGCCGUUCGGAUCUGCACUUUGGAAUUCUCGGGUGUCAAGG	0.638

Block 3
Target: Histone acetyltransferase KAT6A, both winged helices, GST fusion (KAT6A, Homo sapiens, UniProt Q92794, residues 1-181)
Technique: protein binding microarray
Form: double-stranded DNA, one strand shown
Medium: in vitro
Concentration: not given
Notes: 8-mer, flanks averaged, mean of 2 arrays, mostly near background
Reference: not given
Direction: higher = stronger binding
Residues (chain): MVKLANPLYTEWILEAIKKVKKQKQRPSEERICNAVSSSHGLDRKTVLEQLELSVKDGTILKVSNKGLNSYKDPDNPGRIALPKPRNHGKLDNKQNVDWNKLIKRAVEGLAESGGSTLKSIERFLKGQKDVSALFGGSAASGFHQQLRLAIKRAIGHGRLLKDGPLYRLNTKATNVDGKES
Sequence	E-score
GACGAATA	-0.0101
AGAAACAC	0.0296
AGAAATAA	-0.116
AGTCACAT	-0.0434
GTTTGTAA	-0.0819
ATCATCTA	0.024
CTAGGGTA	-0.0981
AGAGCATC	-0.195

Single results of other studies
Substance	target	test	test system	setting	how to read	quantity	value
PhoQ, residues 284 288 289 292 302 303 QWQEDG	PhoP, residues 12 14 15 18 19 LWHCS (Escherichia coli, UniProt P23836)	Sort-seq, refers to: YFP reporter	E. coli	PhoQ-PhoP variant library, together with: 10 µM Mg2+	reference: high Mg2+ state, higher = stronger signaling	fold induction	9.81 and 14.5

Excerpt of the above (block 1):
Variant	normalised enrichment score
STTSRRLFVENDS [R4S]	-0.393
SSTRRRLFVENDS [T2S]	0.143
STTRRHLFVENDS [R6H]	0.152
